Measured values pooled from the literature.
Every numbered part comes from another study and shows a few of its results, in no order. Changes are numbered by the printed parent chain.

Block 1
Target: CCNA1, cyclin fold, Cln2 fusion (human)
Method: yeast growth competition, sequencing
Medium: yeast
Notes: weak parent motif
Reference: not given
Direction: higher = stronger binding
Parent: CDKN1A docking peptide (human); SKACRRLFGPVDS
Substitution	normalised enrichment score
SKASRRLFGPVDS [C4S]	0.386
SKACHRLFGPVDS [R5H]	0.0518
SKACRRLFGPVTS [D12T]	0.559
SKACRRLFGPVLS [D12L]	-0.114
SLACRRLFGPVDS [K2L]	0.301
SKACRRLFGPSDS [V11S]	0.617
SKACRRLFGPRDS [V11R]	0.379
SKACRRLFSPVDS [G9S]	0.749
SRACRRLFGPVDS [K2R]	0.452
SKACRRLFGPVIS [D12I]	0.376
SKACRRLFGPVDA [S13A]	0.625
SKAMRRLFGPVDS [C4M]	-0.422
SKAWRRLFGPVDS [C4W]	0.343
SKWCRRLFGPVDS [A3W]	-0.378
SKACRRLFGRVDS [P10R]	0.695
SKAQRRLFGPVDS [C4Q]	0.428
SKACRTLFGPVDS [R6T]	0.55
SKACRRLSGPVDS [F8S]	0.23
SKACRRLFPPVDS [G9P]	1.12
SKACRRLFGPVMS [D12M]	0.601
SQACRRLFGPVDS [K2Q]	0.379
SKACRRLFGPVCS [D12C]	0.142
SKACRRLFGPGDS [V11G]	0.399
SKACRRLMGPVDS [F8M]	0.323
SKALRRLFGPVDS [C4L]	0.213

Block 2
Target: ABI1, truncated, D143A, DHFR fusion (Arabidopsis thaliana)
Method: DHFR PCA, deep sequencing
Medium: yeast
Notes: methotrexate growth selection, single substitutions
Added: (+)-ABA 58 µM
Reference: wild-type fitted maximum
Direction: higher = stronger binding
Parent: PYL1, truncated, DHFR fusion (Arabidopsis thaliana); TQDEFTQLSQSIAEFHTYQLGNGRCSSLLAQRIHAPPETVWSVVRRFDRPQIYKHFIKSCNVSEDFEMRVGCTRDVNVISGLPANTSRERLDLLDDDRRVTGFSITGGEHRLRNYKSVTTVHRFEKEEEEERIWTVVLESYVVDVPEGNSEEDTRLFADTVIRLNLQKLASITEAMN; partner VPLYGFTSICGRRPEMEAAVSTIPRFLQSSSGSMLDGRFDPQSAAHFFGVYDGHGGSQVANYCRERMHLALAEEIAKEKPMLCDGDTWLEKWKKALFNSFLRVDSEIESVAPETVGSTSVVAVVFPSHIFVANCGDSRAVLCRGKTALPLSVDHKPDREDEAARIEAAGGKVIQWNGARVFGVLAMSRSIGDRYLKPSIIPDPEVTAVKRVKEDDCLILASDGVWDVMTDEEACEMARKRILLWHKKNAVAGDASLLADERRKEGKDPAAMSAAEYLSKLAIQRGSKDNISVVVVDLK
Substitution	relative binding score
E4G	75.5%
N85V	87.3%
Q167N	74.2%
G71K	14.4%
G148Y	43.8%
D159C	31.4%
V136N	25.4%
L94V	54.3%
T73R	69.8%
I33Q	-7.38%
G23E	73.2%
A170H	25.4%
L166I	26.1%
C72V	85.2%

Block 3
Target: Sal-like protein 4, full length isoform B (SALL4, Homo sapiens, UniProt Q9UJQ4-2, residues 1-616)
Method: universal PBM
Form: double-stranded DNA, one strand shown
Medium: in vitro
Tested at: not given
Notes: 8-mer, flanks averaged, mean of replicates
Direction: higher = stronger binding
Sequence	E-score
ACCAACTG	-0.134
CTTCCTAA	0.208
AAACTCCG	-0.0465
AGCCTAAA	0.0423
CCAAAAAG	0.19
AATCCGTC	-0.0644
CGGTTCTC	-0.172
ACTTGTCT	0.128
ACTATCAC	0.154
CGCTCGTA	-0.0889
AATTATAC	0.335
AGCTTGCG	-0.201
CGACCGTA	-0.246
GGGAGATA	0.131
CCTGACAG	-0.183
ACAGGCAT	-0.0263

Block 4
Target: Histone acetyltransferase KAT6A, both winged helices, GST fusion (KAT6A, Homo sapiens, UniProt Q92794, residues 1-181)
Method: protein binding microarray
Form: double-stranded DNA, one strand shown
Medium: in vitro
Tested at: not given
Notes: 8-mer, flanks averaged, mean of 2 arrays, mostly near background
Reference: not given
Direction: higher = stronger binding
Target sequence (chain): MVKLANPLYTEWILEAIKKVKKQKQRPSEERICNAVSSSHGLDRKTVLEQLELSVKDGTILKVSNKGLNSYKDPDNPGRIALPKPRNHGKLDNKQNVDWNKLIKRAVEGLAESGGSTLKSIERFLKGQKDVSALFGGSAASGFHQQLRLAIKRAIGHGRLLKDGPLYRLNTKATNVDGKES
Sequence	E-score
AGTTTCCG	0.245
CGAAGCTA	0.093
ACATGGTA	0.00645
GCATCAAA	0.0398
CCCCCCGC	0.0255
GTGGTGAA	0.0243
CAAGCAAC	0.0254
GATGGGGA	-0.155
AGTCGCTC	-0.0667
CCGTTACC	0.114
GCTTATAA	-0.0595
ACCAATTC	-0.162
ACGAGGGA	-0.129
CTAAGGAG	-0.201
GACTGCGC	0.264
ATCCCCGC	0.288
AAATGGGC	-0.0741
ATTCGAAC	-0.0972
GTGTGGTA	-0.131
GACACCGA	0.0311
TCATGCGA	0.017
AATGCATC	-0.196
ACACGAAC	0.0764
AAATACAT	-0.0462
ACATAGCA	-0.135

Block 5
Target: CREBRF, bZIP domain (human)
Method: DHFR protein complementation
Medium: yeast
Notes: single substitutions, most at no-binding floor
Reference: wild-type JUN-FOS pair
Direction: higher = stronger binding
Parent: JUN, bZIP domain (human); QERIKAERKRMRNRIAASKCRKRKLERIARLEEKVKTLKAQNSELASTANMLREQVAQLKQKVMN; partner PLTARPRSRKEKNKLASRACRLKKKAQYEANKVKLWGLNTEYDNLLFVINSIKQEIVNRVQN
Substitution	binding fitness
Q41W	-1.49 natural log
Q55S	-1.39 natural log
I28Y	-0.92 natural log
V35H	-1.38 natural log
T37F	-1.56 natural log
V56L	-1.54 natural log
I28L	-1.29 natural log
S47I	-1.48 natural log
K34A	-1.5 natural log
L52T	-1.52 natural log
E33N	-1.54 natural log
E32S	-1.45 natural log
A29N	-1.55 natural log
K39M	-1.52 natural log
A57H	-1.58 natural log
T37Y	-1.66 natural log
E33W	-1.2 natural log
R53H	-1.59 natural log
V56N	-1.65 natural log
Q41I	-1.56 natural log
A40N	-1.55 natural log
A40E	-1.48 natural log
R53I	-1.52 natural log
L38G	-1.51 natural log
S43C	-1.16 natural log

Block 6
Target: Interferon regulatory factor 7, full length, phosphomimetic (IRF7, Homo sapiens, UniProt Q92985, residues 1-503, S471D/S472D/S475D/S476D/S477D/S483D/S484D/S487D)
Chain of UniProt Q92985 (whole entry, unmodified, looked up): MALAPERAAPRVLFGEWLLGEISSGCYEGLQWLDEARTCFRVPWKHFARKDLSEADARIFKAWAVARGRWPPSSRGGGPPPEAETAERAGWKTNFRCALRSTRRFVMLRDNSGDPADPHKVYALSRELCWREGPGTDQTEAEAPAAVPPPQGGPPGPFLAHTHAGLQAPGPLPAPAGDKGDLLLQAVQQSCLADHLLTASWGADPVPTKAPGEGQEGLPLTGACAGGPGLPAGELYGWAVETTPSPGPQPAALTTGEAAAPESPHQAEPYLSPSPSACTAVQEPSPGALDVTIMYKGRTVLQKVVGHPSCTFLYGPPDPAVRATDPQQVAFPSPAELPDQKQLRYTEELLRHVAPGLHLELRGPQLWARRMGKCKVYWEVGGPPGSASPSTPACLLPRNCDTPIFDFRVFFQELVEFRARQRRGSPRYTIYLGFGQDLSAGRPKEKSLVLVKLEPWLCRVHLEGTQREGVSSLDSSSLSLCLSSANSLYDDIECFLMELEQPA
Method: protein-binding microarray
Form: double-stranded DNA, one strand shown
Medium: in vitro
Tested at: 2200 nM top
Notes: 60-bp whole probe
Added: salmon DNA 0.4 mg/ml
Reference: random background probes
Direction: higher = stronger binding
Shared flanks, not repeated: GCCTAGCAC … GTCTTGATTCGCTTGACGCTGCTG
Sequence	fitted relative affinity
TCAATTCTAGCCTATAGAACTGTGCTA	0.115 z-score
TCACTTTTATTTTTTTTACTGTGCTAG	2.12 z-score
TCATTTTTTTTATTTATACTGTGCTAG	1.53 z-score
TTAGGTACCGGTCTCGGTTAGTGCTAG	0.373 z-score
TTAGGTCTCGGTCTCGATTAGTGCTAG	0.541 z-score
GACGGTCTCCTTTTCGTGACGTGCTAG	1.53 z-score
GACGGTATCAGACTGGGGACGTGCTAG	-0.309 z-score
TATCAGTTTAATATCTAAGAGTGCTAG	0.481 z-score
AAATGTGTTAGAAACAGGTTGTGCTAG	-0.204 z-score
AACATACTCGTTTACATTTTGTGCTAG	1.78 z-score
TTAGGGCTGGGTTTCGGTTAGTGCTAG	3.4 z-score
TGTCATATACACATCTTCTGGTGCTAG	1.11 z-score
GACGGACTGCCTATCCTGACGTGCTAG	0.164 z-score
TTAGGACTGGACCTTCGGTTAGTGCTA	-0.281 z-score
GACGGTCTCCTACTGCTGACGTGCTAG	0.575 z-score
TAAGATTTCGGGTATCGATTAGTGCTA	2.73 z-score
TATTGTCTCCCCCATCTTGTTGTGCTA	0.809 z-score
GACGGACTGCTGTTCCTGACGTGCTAG	0.506 z-score
TCAGGACTGGGGTTTCGGTTAGTGCTA	2.37 z-score
TTAGGTTCCCTATTCCTTTAGTGCTAG	1.83 z-score
ATAGATTTCAGTATCGATTAGTGCTAG	0.999 z-score
TCAGTTCTGGGAAATATTACTGTGCTA	0.333 z-score
TATTATATCTGTGTTATTAAGTGCTAG	0.848 z-score
TTAGAGATCAGTTTCGATTAGTGCTAG	5.35 z-score
TTTTGCTTTCTTTTTGCACTGTGCTAG	10.2 z-score

Other studies, line by line
Substance	target	test	test system	conditions	scale	measurement	value
PhoQ, residues 284 288 289 292 302 303 GTAMQF	PhoP, residues 12 14 15 18 19 SQCLL (Escherichia coli, UniProt P23836)	Sort-seq, measured: YFP reporter	E. coli	PhoQ-PhoP variant library, added: 10 µM Mg2+	reference: high Mg2+ state, higher = stronger signaling	fold induction	2.76
